{"data": "Assay results from different studies", "note": "Protocols differ between the studies behind these lines."}
{"SMILES": "N=C(N)NCCC[C@@H]1NC(=O)[C@H](CCCNC(=N)N)NC(=O)[C@H](CCCNC(=N)N)NC(=O)[C@@H](CCCNC(=N)N)NC(=O)[C@H](Cc2ccc3ccccc3c2)NC(=O)[C@H](Cc2ccc3ccccc3c2)NC(=O)[C@H](Cc2ccc3ccccc3c2)NC1=O", "organism": "Paecilomyces variotii", "test system": "MYA-3630", "MIC": "8 µg/mL"}
{"SMILES": "COC1=CC(c2ccc[nH]2)=NC1=CNC1CCCCCC1.Cl", "organism": "Candidozyma auris", "assay": "broth microdilution", "test system": "CDC AR Bank #0381", "conditions": "24 h", "MIC": "8 µg/mL"}
{"SMILES": "COc1cc(C(=O)Nc2ccc(C(=O)O)c(O)c2OC)ccc1NC(=O)c1ccc(NC(=O)[C@H](Cc2c[nH]nn2)NC(=O)c2ccc(NC(=O)/C(C)=C/c3ccc(O)cc3)cc2)cc1", "organism": "Micrococcus luteus", "assay": "broth microdilution", "test system": "DSM 1790", "MIC": "2 µg/mL"}
{"SMILES": "CN[C@H](CC(C)C)C(=O)N[C@H]1C(=O)N[C@@H](CC(N)=O)C(=O)N[C@H]2C(=O)N[C@H]3C(=O)N[C@H](C(=O)N[C@H](C(=O)O)c4cc(O)cc(O)c4-c4cc3ccc4O)[C@H](O)c3ccc(c(Cl)c3)Oc3cc2cc(c3O[C@@H]2O[C@H](CO)[C@@H](O)[C@H](O)[C@H]2O[C@H]2C[C@](C)(N)[C@H](O)[C@H](C)O2)Oc2ccc(cc2Cl)[C@H]1O", "organism": "Micrococcus luteus", "assay": "microbial growth, broth dilution", "test system": "DSM1790", "conditions": "48 h", "MIC": "0.25 µg/mL"}
{"SMILES": "COc1c(NC(=O)c2ccc(NC(=O)[C@H](Cc3c[nH]nn3)NC(=O)c3ccc(NC(=O)/C(C)=C/c4ccc(O)cc4)cc3)cc2)ccc(C(=O)Nc2ccc(C(=O)O)cc2)c1O", "organism": "Micrococcus luteus", "assay": "broth microdilution", "test system": "DSM 1790", "MIC": "2 µg/mL"}
{"SMILES": "C#CCNC(=O)[C@H]1NC(=O)[C@H]2NC(=O)[C@H](NC(=O)[C@@H]3NC(=O)[C@H](CC(N)=O)NC(=O)[C@H](NC(=O)[C@@H](CC(C)C)NC)[C@H](O)c4ccc(c(Cl)c4)Oc4cc3cc(c4O[C@@H]3O[C@H](CO)[C@@H](O)[C@H](O)[C@H]3O[C@H]3C[C@](C)(N)[C@H](O)[C@H](C)O3)Oc3ccc(cc3Cl)[C@H]2O)c2ccc(O)c(c2)-c2c(O)cc(O)cc21", "organism": "Staphylococcus simulans", "assay": "broth microdilution", "test system": "22, cation-adjusted Mueller-Hinton broth", "conditions": "20 to 24 h, 37 °C, 0.002% polysorbate 80", "MIC": "0.25 µg/mL"}
{"SMILES": "C/C(=C\\c1ccc(O)cc1)C(=O)Nc1ccc(C(=O)N[C@@H](Cc2c[nH]nn2)C(=O)Nc2ccc(C(=O)Nc3ccc(C(=O)Nc4ccc(C(=O)O)c(O)c4)c(O)c3)cc2)cc1", "organism": "Micrococcus luteus", "assay": "broth microdilution", "test system": "DSM 1790", "MIC": "0.5 µg/mL"}
{"SMILES": "CC[C@H](C)[C@@H]1NC(=O)[C@@H]([C@@H](C)O)NC(=O)CNC(=O)[C@H](CC(=O)O)NC(=O)CNC(=O)[C@H](CC(=O)O)NC(=O)CNC(=O)[C@H]2CCCCN2C(=O)[C@@H](NC(=O)[C@H](CC(=O)O)NC(=O)/C=C/CCCCCCCCCC(C)C)CNC(=O)[C@@H]2CCCN2C1=O", "organism": "Staphylococcus simulans", "assay": "broth microdilution", "test system": "22, Mueller-Hinton broth, Mg2+ 10 mg/L", "conditions": "16 h, 30 °C, with: Ca2+ 5 mM", "MIC": "4 µg/mL"}
{"SMILES": "N=C(N)NCCC[C@@H]1NC(=O)[C@H](CCCNC(=N)N)NC(=O)[C@@H](CCCNC(=N)N)NC(=O)[C@@H](CCCNC(=N)N)NC(=O)[C@@H](C(c2ccccc2)c2ccccc2)NC(=O)[C@@H](Cc2c[nH]c3ccccc23)NC(=O)[C@@H](C(c2ccccc2)c2ccccc2)NC1=O", "organism": "Paecilomyces variotii", "test system": "MYA-3630", "MIC": "8 µg/mL"}
{"SMILES": "CC1C=CC=CC(C)C2C=CC3CC(C)(O)C(Cl)C(C)C3C2C(=O)C(Cl)(Cl)C(=O)C(C)C(=O)O1 (stereo not drawn)", "organism": "Staphylococcus aureus", "test system": "MRSA clinical isolate", "conditions": "resistant, OXA, CIP, MXF, ERY, CLI, RIF", "MIC": "0.1 µg/mL"}
{"SMILES": "COC1C=COC2(C)Oc3c(C)c(O)c4c(c3C2=O)C2=NC3(CCN(CC(C)C)CC3)NC2=C(NC(=O)C(C)=CC=CC(C)C(O)C(C)C(O)C(C)C(OC(=O)Nc2cnccn2)C1C)C4=O (stereo not drawn)", "organism": "Mycobacteroides abscessus", "assay": "microbial growth, agar dilution", "test system": "ATCC19977", "MIC": "0.48 µM"}
{"SMILES": "CN[C@H](CC(C)C)C(=O)N[C@H]1C(=O)N[C@@H](CC(N)=O)C(=O)N[C@H]2C(=O)N[C@H]3C(=O)N[C@H](C(=O)N[C@H](C(=O)O)c4cc(O)cc(O)c4-c4cc3ccc4O)[C@H](O)c3ccc(c(Cl)c3)Oc3cc2cc(c3O[C@@H]2O[C@H](CO)[C@@H](O)[C@H](O)[C@H]2O[C@H]2C[C@](C)(NCc3ccc(OCc4cn(CCCCC(=O)N[C@H](C(=O)N[C@@H](CCN)C(=O)N[C@H]5CCNC(=O)[C@H]([C@@H](C)O)NC(=O)[C@H](CCN)NC(=O)[C@H](CCN)NC(=O)[C@H](CC(C)C)NC(=O)[C@@H](CC(C)C)NC(=O)[C@H](CCN)NC5=O)[C@@H](C)O)nn4)c(OC)c3)[C@H](O)[C@H](C)O2)Oc2ccc(cc2Cl)[C@H]1O", "organism": "Staphylococcus simulans", "assay": "broth microdilution", "test system": "22, cation-adjusted Mueller-Hinton broth", "conditions": "20 to 24 h, 37 °C, 0.002% polysorbate 80", "MIC": "0.016 µg/mL"}
{"SMILES": "COc1nc(C(=O)Nc2ccc(C(=O)O)c(O)c2OC)ccc1NC(=O)c1ccc(NC(=O)[C@H](Cc2c[nH]nn2)NC(=O)c2ccc(NC(=O)/C(C)=C/c3ccc(O)cc3)cc2)cc1", "organism": "Micrococcus luteus", "assay": "broth microdilution", "test system": "DSM 1790", "MIC": "0.25 µg/mL"}
{"SMILES": "CC[C@H](C)[C@H](N)C1=N[C@H](C(=O)N[C@@H](CC(C)C)C(=O)N[C@H](CCC(=O)O)C(=O)N[C@H](C(=O)N[C@H]2CCCCNC(=O)[C@H](CC(N)=O)NC(=O)[C@@H](CC(=O)O)NC(=O)[C@H](Cc3c[nH]cn3)NC(=O)[C@@H](Cc3ccccc3)NC(=O)[C@H]([C@@H](C)CC)NC(=O)[C@@H](CCCN)NC2=O)[C@@H](C)CC)CS1", "organism": "Staphylococcus simulans", "test system": "22", "conditions": "18 h, 37 °C, 0.3 mM ZnSO4 LB", "MIC": "0.25 µg/mL"}
{"SMILES": "C=C[C@]1(C)C[C@@H](OC(=O)CSc2ccc(NC(=O)c3ccco3)cc2)[C@]2(C)[C@H](C)CC[C@]3(CCC(=O)[C@H]32)[C@@H](C)[C@@H]1O", "organism": "Mycoplasma gallisepticum", "test system": "chicken lung isolates", "conditions": "60 mg/kg to chickens", "MIC": "0.00391 µg/mL"}
{"SMILES": "C#CCOc1ccc(CN[C@@]2(C)C[C@H](O[C@H]3[C@H](Oc4c5cc6cc4Oc4ccc(cc4Cl)[C@@H](O)[C@@H](NC(=O)[C@@H](CC(C)C)NC)C(=O)N[C@@H](CC(N)=O)C(=O)N[C@H]6C(=O)N[C@H]4C(=O)N[C@H](C(=O)N[C@H](C(=O)O)c6cc(O)cc(O)c6-c6cc4ccc6O)[C@H](O)c4ccc(c(Cl)c4)O5)O[C@H](CO)[C@@H](O)[C@@H]3O)O[C@@H](C)[C@H]2O)cc1OC", "organism": "Staphylococcus simulans", "assay": "broth microdilution", "test system": "22, cation-adjusted Mueller-Hinton broth", "conditions": "20 to 24 h, 37 °C, 0.002% polysorbate 80", "MIC": "1 µg/mL"}
{"SMILES": "CC[C@H](C)[C@H](NC(=O)[C@H](CC(N)=O)NC(=O)[C@H](CCC(N)=O)NC(=O)[C@H](CC(C)C)NC(=O)[C@@H](NC(=O)[C@H](Cc1ccccc1)NC(=O)[C@H](Cc1ccc(O)cc1)NC(=O)[C@H](CO)NC(=O)[C@H](CS)NC(=O)[C@H](CC(C)C)NC(=O)[C@H](CCCCN)NC(=O)[C@H](CCCCN)NC(=O)[C@H](CCCNC(=N)N)NC(=O)[C@H](CCCNC(=N)N)NC(=O)[C@H](CS)NC(=O)[C@H](CCCNC(=N)N)NC(=O)[C@H](CCCCN)NC(=O)[C@H](CCCNC(=N)N)NC(=O)[C@H](CCCCN)NC(=O)[C@H](Cc1ccccc1)NC(=O)[C@@H](N)CCCNC(=N)N)[C@@H](C)CC)C(=O)N[C@@H](CC(N)=O)C(=O)N[C@@H](Cc1ccccc1)C(=O)N[C@@H](CCCNC(=N)N)C(=O)N[C@@H](CC(C)C)C(=O)N[C@@H](CCCNC(=N)N)C(=O)N[C@@H](CCCCN)C(=O)NCC(=O)N[C@@H](CCCCN)C(=O)O", "organism": "Micrococcus luteus", "assay": "broth microdilution", "test system": "ATCC 4698", "conditions": "43 h, 37 °C, cation-adjusted Mueller-Hinton broth", "MIC": "8 µg/mL"}
{"SMILES": "COc1cc(C(=O)O)ccc1NC(=O)c1ccc(NC(=O)c2ccc(NC(=O)[C@H](Cc3c[nH]nn3)NC(=O)c3ccc(NC(=O)/C(C)=C/c4ccc(O)cc4)cc3)cc2)c(OC)c1", "organism": "Micrococcus luteus", "assay": "broth microdilution", "test system": "DSM 1790", "MIC": "4 µg/mL"}
{"SMILES": "CN[C@H](CC(C)C)C(=O)N[C@H]1C(=O)N[C@@H](CC(N)=O)C(=O)N[C@H]2C(=O)N[C@H]3C(=O)N[C@H](C(=O)N[C@H](C(=O)NCC(N)=O)c4cc(O)cc(O)c4-c4cc3ccc4O)[C@H](O)c3ccc(c(Cl)c3)Oc3cc2cc(c3O[C@@H]2O[C@H](CO)[C@@H](O)[C@H](O)[C@H]2O[C@H]2C[C@](C)(NCc3ccc(OCc4cn(CC(=O)N[C@H](C(=O)N[C@@H](CCN)C(=O)N[C@H]5CCNC(=O)[C@H]([C@@H](C)O)NC(=O)[C@H](CCN)NC(=O)[C@H](CCN)NC(=O)[C@H](CC(C)C)NC(=O)[C@@H](CC(C)C)NC(=O)[C@H](CCN)NC5=O)[C@@H](C)O)nn4)c(OC)c3)[C@H](O)[C@H](C)O2)Oc2ccc(cc2Cl)[C@H]1O", "organism": "Staphylococcus simulans", "assay": "broth microdilution", "test system": "22, cation-adjusted Mueller-Hinton broth", "conditions": "20 to 24 h, 37 °C, 0.002% polysorbate 80", "MIC": "≤ 0.008 µg/mL"}
{"SMILES": "Cc1c(CN(C)C(=O)/C=C/c2cnc3c(c2)CC(N)C(=O)N3)oc2ccccc12 (stereo not drawn)", "organism": "Klebsiella pneumoniae", "assay": "microbial growth, broth dilution", "test system": "BAA2470", "MIC": "4 µg/mL"}
{"SMILES": "CC[C@H](C)[C@H](NC(=O)[C@H](CCCNC(=N)N)NC(=O)[C@H](CC(=O)O)NC(=O)[C@H](CCCNC(=N)N)NC(=O)[C@H](CC(C)C)NC(=O)[C@H](CC(N)=O)NC(=O)[C@H](CCCNC(=N)N)NC(=O)[C@@H](N)Cc1ccccc1)C(=O)N[C@@H](CCCCN)C(=O)N[C@@H](CC(N)=O)C(=O)N[C@@H](CCCCN)C(=O)N[C@@H](Cc1ccccc1)C(=O)N[C@@H](CCC(=O)O)C(=O)N[C@@H](CC(N)=O)C(=O)N[C@@H](C)C(=O)N[C@@H](CC(C)C)C(=O)N[C@@H](CCCCN)C(=O)N[C@@H](CC(N)=O)C(=O)N[C@H](C(=O)N[C@H](C(=O)N[C@@H](CC(N)=O)C(=O)N[C@@H](CCCCN)C(=O)N[C@@H](CC(C)C)C(=O)N[C@@H](Cc1ccccc1)C(=O)N1CCC[C@H]1C(=O)O)[C@@H](C)CC)C(C)C", "organism": "Micrococcus luteus", "assay": "broth microdilution", "test system": "ATCC 4698", "conditions": "43 h, 37 °C, cation-adjusted Mueller-Hinton broth", "MIC": "8 µg/mL"}
